{"data": "Measured values gathered from unrelated publications", "GAP50": "Glideosome-associated protein 50 (GAP50, Plasmodium falciparum, UniProt Q8I2X3)", "FFAR4": "Free fatty acid receptor 4 (FFAR4, Homo sapiens, UniProt Q5NUL3)", "TRPM8": "Transient receptor potential cation channel subfamily M member 8 (TRPM8, Homo sapiens, UniProt Q7Z2W7)", "Kir3.1/Kir3.2": "Kir3.1/Kir3.2 (Homo sapiens, UniProt P48051+P48549)", "note": "Compare with care: the assays were run in different laboratories. “And” joins repeats or separate records; there may be more than shown. ± gives the spread as reported."}
{"Structure (SMILES)": "Cc1ccc(S(=O)(=O)Nc2ccc(CN3CCN(C(=O)c4cccc(C#N)c4)CC3)cc2)cc1", "target": "GAP50", "assay": "binding, surface plasmon resonance", "conditions": "1:1 binding model", "quantity": "koff", "value": "1.76 s⁻¹"}
{"Structure (SMILES)": "NCCCCC(=O)O", "target": "SLC6A6 (Homo sapiens, UniProt P31641, G62A)", "assay": "binding, microscale thermophoresis", "conditions": "30.5 nM, room temperature, together with: 50 nM labelled protein", "how to read": "higher = more binding", "quantity": "normalised MST signal", "value": -0.00668}
{"Structure (SMILES)": "O=c1nc(SCc2cc(F)cc(C(F)(F)F)c2)nc(SCc2csc3ccc(Cl)cc23)[nH]1", "target": "TOP2B (Homo sapiens, UniProt Q02880)", "assay": "decatenation", "conditions": "7.8 µM, replicate 2", "quantity": "decatenated DNA", "value": "73.4%"}
{"Structure (SMILES)": "CCCCCCCCNc1[nH]c(=O)[nH]c(=O)c1N=O", "target": "FFAR4", "assay": "antagonist, β-arrestin recruitment", "system": "CHO cells", "conditions": "10 µM", "quantity": "inhibition", "value": "26 ± 4%"}
{"Structure (SMILES)": "CC1=C(/C=C/C(C)=C/C=C/C(C)=C/C=O)C(C)(C)CCC1", "target": "Rhodopsin (RHO, Bos taurus, UniProt P02699, I189P)", "assay": "retinal release, Trp FRET", "system": "lipid bicelles", "conditions": "28 °C, I189P mutant", "how to read": "baseline: wild-type rhodopsin", "quantity": "relative koff", "value": "12.9 ± 4.2"}
{"Structure (SMILES)": "CCOc1ccc(-c2nc(CNCCc3ccc(F)cc3)cs2)cc1", "target": "GAP50", "assay": "binding, surface plasmon resonance", "conditions": "1:1 binding model", "quantity": "kon", "value": "6940 M⁻¹ s⁻¹"}
{"Structure (SMILES)": "Nc1c(Cl)c(Cl)nc(C(=O)O)c1Cl", "target": "Germin-like protein subfamily 3 member 1 (GLP1, Arabidopsis thaliana, UniProt P94040)", "assay": "microscale thermophoresis", "system": "Arabidopsis protoplast extract", "conditions": "concentration not given", "quantity": "binding", "value": "no binding"}
{"Structure (SMILES)": "CCN1CCN(c2cc(N3CCN(CC)CC3)nc(NCCNc3ccnc4cc(Cl)ccc34)n2)CC1", "target": "Nuclear receptor subfamily 4 group A member 2, LBD; with RXRα (Homo sapiens, UniProt P43354)", "assay": "reporter gene, full-length heterodimer DR5 reporter", "conditions": "20 µM", "how to read": "baseline: vehicle", "quantity": "activation", "value": "1.68 ± 0.5 fold"}
{"Structure (SMILES)": "Nc1ncnc2c1ncn2[C@@H]1O[C@H](COP(=O)(O)CP(=O)(O)OP(=O)(O)O)[C@@H](O)[C@H]1O", "target": "P2X purinoceptor 1 (P2RX1, Homo sapiens, UniProt P51575, E282A)", "assay": "calcium influx", "conditions": "10 µM", "how to read": "baseline: ionomycin response", "quantity": "calcium influx", "value": "99% and 100%"}
{"Structure (SMILES)": "CC[C@@H]1[C@H](F)C(=O)N[C@@H]1COc1nccc2cc(C(N)=O)c(OC)cc12", "target": "TNIK (Homo sapiens, UniProt Q9UKE5)", "assay": "ATP probe binding, KiNativ profiling, item: Lys1 probe site", "system": "THP-1 cell lysate", "conditions": "0.04 mM", "quantity": "inhibition", "value": "-2.7%"}
{"Structure (SMILES)": "Cn1ncc2c(NCCO)nc(Nc3ccc(F)c(F)c3)nc21", "target": "3-oxoacyl-[acyl-carrier-protein] reductase FabG (fabG, Pseudomonas aeruginosa, UniProt O54438)", "assay": "enzyme activity, inhibitor, NADPH fluorescence", "conditions": "reverse reaction, together with: 3-OH-decanoyl-NAC, NADP", "quantity": "Hill slope", "value": 1.7}
{"Structure (SMILES)": "N[C@@](CCCCB(O)O)(C(=O)O)C1CCN(Cc2ccc(Cl)c(Cl)c2)CC1 (racemic)", "target": "Arginase (Schistosoma mansoni, UniProt Q6WVP6)", "assay": "isothermal titration calorimetry", "conditions": "concentration not given", "quantity": "binding enthalpy", "value": "-7.7 ± 0.1 kcal/mol"}
{"Structure (SMILES)": "N#CC(c1ccnc(NCCc2cccnc2)n1)c1nc2ccccc2s1 (centres unmarked)", "target": "TRPM8", "assay": "antagonist", "system": "HEK293", "conditions": "5 µM", "how to read": "baseline: control", "quantity": "remaining activity", "value": "92.2 ± 1.51%"}
{"Structure (SMILES)": "Nc1ncnc2c1ncn2[C@@H]1O[C@H](COP(=O)(O)OP(=O)(O)OP(=O)(O)O)[C@@H](O)[C@H]1O", "target": "rat Ca2+-activated nonselective cation channel", "conditions": "one-subunit noncompetitive model", "quantity": "mutual destabilization factor ξ", "value": 203}
{"Structure (SMILES)": "O=c1[nH]c(NCCCc2ccccc2)c(Br)c(=O)[nH]1", "target": "FFAR4", "assay": "agonist, β-arrestin recruitment", "system": "CHO cells", "conditions": "10 µM", "quantity": "activation", "value": "0%"}
{"Structure (SMILES)": "Cc1cc(NC(=O)CNC2CCCNC2)n(C2CCS(=O)(=O)C2)n1 (centres unmarked)", "target": "Kir3.1/Kir3.2", "assay": "activator, thallium flux", "system": "HEK293", "conditions": "concentration not given", "quantity": "activity", "value": "inactive"}
{"Structure (SMILES)": "NCc1ccc(C(F)(F)F)cc1", "target": "Maoa (Rattus norvegicus, UniProt P21396)", "assay": "substrate", "system": "rat", "conditions": "pH 9.0, α,α-protio substrate", "quantity": "kcat", "value": "13.5 ± 0.183 s⁻¹"}
{"Structure (SMILES)": "NC(=O)NOCCCCCCCCCCCCCCCCCCCC[P+](c1ccccc1)(c1ccccc1)c1ccccc1.O=C([O-])C(F)(F)F", "target": "NADH dehydrogenase [ubiquinone] iron-sulfur protein 7, mitochondrial/NADH dehydrogenase [ubiquinone] iron-sulfur protein 2, mitochondrial/MT-ND1 (Homo sapiens, UniProt O75251+O75306+P03886)", "assay": "complex I-dependent respiration, Seahorse XF96", "system": "HCT-116", "conditions": "0.03 µM, 24 h", "how to read": "baseline: control", "quantity": "oxygen consumption rate", "value": "94.6 ± 11.4%"}
{"Structure (SMILES)": "CC[C@H](C)[C@H](NC(=O)[C@H](C)NC(=O)[C@H](C)NC(=O)[C@@H](NC(=O)[C@H](CC(=O)O)NC(=O)[C@H](CS)NC(=O)[C@H](CC(C)C)NC(=O)[C@H](CCC(=O)O)NC(=O)[C@H](C)NC(=O)[C@H](CC(=O)O)NC(=O)[C@H](CO)NC(=O)[C@H](C)NC(=O)[C@H](CC(N)=O)NC(=O)[C@H](C)NC(=O)[C@H](CC(C)C)NC(=O)[C@H](C)NC(=O)[C@H](CCC(=O)O)NC(=O)[C@H](CCC(=O)O)NC(=O)[C@H](CC(C)C)NC(=O)[C@H](CCC(=O)O)NC(=O)[C@@H]1CCCN1C(=O)[C@H](CCC(=O)O)NC(=O)[C@H](CC(C)C)NC(=O)[C@@H](NC(=O)[C@@H](NC(=O)[C@@H](N)CO)C(C)C)[C@@H](C)O)[C@@H](C)CC)C(=O)N[C@@H](CC(C)C)C(=O)NCC(=O)N[C@@H](CCSC)C(=O)N[C@@H](Cc1c[nH]cn1)C(=O)N[C@H](C(=O)N[C@@H](CC(C)C)C(=O)N[C@@H](CCSC)C(=O)N[C@@H](CO)C(=O)N[C@@H](CC(N)=O)C(=O)N[C@@H](CCC(N)=O)C(=O)O)[C@@H](C)O", "target": "Tropomyosin alpha-1 chain (Tpm1, Rattus norvegicus, UniProt P04692)", "assay": "complex unfolding, circular dichroism", "conditions": "40 µM each peptide, pH 7.0, WT peptide", "quantity": "melting temperature", "value": "31.3 ± 0.5 °C"}
{"Structure (SMILES)": "O=C(c1ccc(CNCCCN2CCN(c3ccc(F)cc3)CC2)cc1)c1ccc([N+](=O)[O-])cc1", "target": "TMEM97 (Homo sapiens, UniProt Q5BJF2)", "assay": "radioligand binding", "system": "RT-4 cell membranes", "how to read": "baseline: sigma1 Ki over sigma2 Ki", "quantity": "Ki ratio", "value": 70.9}
{"Structure (SMILES)": "CC(C)[C@H](CO)Nc1nc(Nc2cc(N)cc(Cl)c2)c2ncn(C(C)C)c2n1", "target": "TRPM8", "assay": "antagonist", "system": "HEK293", "conditions": "5 µM", "how to read": "baseline: control", "quantity": "remaining activity", "value": "64.5 ± 5.34%"}
{"Structure (SMILES)": "Cc1nc(CSc2nc(SCc3ccc(C(C)C)cc3)nc(=O)[nH]2)cs1", "target": "TOP2A (Homo sapiens, UniProt P11388)", "assay": "DNA relaxation", "conditions": "62.5 µM, replicate 1", "quantity": "relaxed DNA", "value": "99.3%"}
{"Structure (SMILES)": "Nc1nc2c(ncn2[C@@H]2O[C@H](COP(=O)(O)O)[C@@H](O)[C@H]2O)c(=O)[nH]1", "target": "GUK1 (Homo sapiens, UniProt Q16774, S13A)", "assay": "binding, ITC", "quantity": "ΔH", "value": "-6.58 ± 0.38 kcal/mol"}
{"Structure (SMILES)": "O=c1cc(NCCc2ccc(Cl)cc2Cl)[nH]c(=O)[nH]1", "target": "FFAR4", "assay": "antagonist, β-arrestin recruitment", "system": "CHO cells", "conditions": "10 µM, together with: 4 µM TUG-891", "quantity": "inhibition", "value": "6 ± 6%"}
{"Structure (SMILES)": "c1ccc(C(NCc2cccnc2)(c2ccccc2)c2ccccc2)cc1", "target": "KCNQ1 (Homo sapiens, UniProt P51787)", "assay": "whole-cell patch clamp", "conditions": "300 pM", "quantity": "fast decay time constant", "value": "126 ± 15 ms"}
{"Structure (SMILES)": "O=C(NCc1ccc(CNS(=O)(=O)c2ccccc2)cc1)c1cccc(Cl)c1", "target": "CXCR4 (Homo sapiens, UniProt P61073)", "assay": "binding, inhibitor, competitive binding", "system": "MDA-MB-231", "conditions": "together with: biotinylated TN14003", "quantity": "EC", "value": "1000 nM"}
{"Structure (SMILES)": "O=C(COP(=O)(O)O)[C@@H](O)[C@H](O)[C@H](O)COP(=O)(O)O", "target": "PGM1 (Homo sapiens, UniProt P36871)", "conditions": "0.25 mM, unit not given", "how to read": "baseline: activity at 0 mM set to 100", "quantity": "enzyme activity", "value": "102 and 100 and 98.6"}
{"Structure (SMILES)": "Cc1ccc(CCNc2cc(=O)[nH]c(=O)[nH]2)cc1", "target": "FFAR4", "assay": "antagonist, β-arrestin recruitment", "system": "CHO cells", "conditions": "10 µM", "quantity": "inhibition", "value": "15 ± 6%"}
{"Structure (SMILES)": "Cc1cc2c(c(=O)[nH]1)C(=O)O/C2=C\\c1ccccc1Cl", "target": "Dual specificity calcium/calmodulin-dependent 3',5'-cyclic nucleotide phosphodiesterase 1C, isoform PDE1C2 (PDE1C, Homo sapiens, UniProt Q14123)", "assay": "enzyme activity, inhibitor", "conditions": "together with: 3H-cGMP substrate", "quantity": "ligand efficiency", "value": 0.42}
{"Structure (SMILES)": "O=C(COc1ccc(Cl)cc1Cl)Nc1cc(C2CC2)nn1CC(F)(F)F", "target": "Kir3.1/Kir3.2", "assay": "thallium flux, activator", "system": "HEK293", "how to read": "baseline: standard compound", "quantity": "Emax", "value": "74%"}
{"Structure (SMILES)": "CCCCCCNc1[nH]c(=O)[nH]c(=O)c1Br", "target": "FFAR4", "assay": "agonist, β-arrestin recruitment", "system": "CHO cells", "conditions": "10 µM", "how to read": "baseline: 30 µM TUG-891", "quantity": "agonist effect", "value": "0%"}
{"Structure (SMILES)": "Oc1ccccc1-c1n[nH]cc1-c1ccnc2ccccc12", "target": "YCK2 (Candida albicans, UniProt A0A1D8PKB4)", "assay": "kinase binding, MIB/MS competition", "system": "Candida albicans lysate", "conditions": "1 µM", "how to read": "baseline: DMSO, negative = stronger binding", "quantity": "log2 fold change", "value": -1.13}
{"note": "For quick reference, copied from above:"}
{"Structure (SMILES)": "CCN1CCN(c2cc(N3CCN(CC)CC3)nc(NCCNc3ccnc4cc(Cl)ccc34)n2)CC1", "target": "Nuclear receptor subfamily 4 group A member 2, LBD; with RXRα (Homo sapiens, UniProt P43354)", "assay": "reporter gene, full-length heterodimer DR5 reporter", "conditions": "20 µM", "how to read": "baseline: vehicle", "quantity": "activation", "value": "1.68 ± 0.5 fold"}
{"Structure (SMILES)": "Nc1ncnc2c1ncn2[C@@H]1O[C@H](COP(=O)(O)CP(=O)(O)OP(=O)(O)O)[C@@H](O)[C@H]1O", "target": "P2X purinoceptor 1 (P2RX1, Homo sapiens, UniProt P51575, E282A)", "assay": "calcium influx", "conditions": "10 µM", "how to read": "baseline: ionomycin response", "quantity": "calcium influx", "value": "99% and 100%"}
